Published values of several laboratories.
Each line is one published result; not all experiments were run side by side.
Organism: Acinetobacter baumannii

The MIC of `CC[C@H](C)[C@H](NC(=O)[C@H](CCCCN)NC(=O)[C@H](CCCNC(=N)N)NC(=O)[C@H](CCCNC(=N)N)NC(=O)[C@H](CC(C)C)NC(=O)[C@H](CCCCN)NC(=O)[C@H](CCCCN)NC(=O)[C@H](Cc1ccccc1)NC(=O)[C@H](CC(C)C)NC(=O)CNC(=O)[C@H](CCCNC(=N)N)NC(=O)[C@@H](N)CCCNC(=N)N)C(=O)N[C@@H](CCCCN)C(=O)N[C@@H](CCCCN)C(=O)NCC(=O)N[C@@H](Cc1ccccc1)C(=O)N[C@@H](CCCCN)C(=O)N[C@@H](CCCCN)C(=O)N[C@H](C(=O)N[C@@H](Cc1ccccc1)C(=O)N[C@@H](CCCCN)C(=O)N[C@@H](CCCNC(=N)N)C(=O)N[C@@H](CC(C)C)C(=O)N1CCC[C@H]1C(=O)N1CCC[C@H]1C(=O)N[C@H](C(=O)NCC(=O)N[C@H](C(=O)NCC(=O)N[C@H](C(=O)N[C@@H](CO)C(=O)O)C(C)C)C(C)C)C(C)C)[C@@H](C)CC` is reported as 10.3 µM (ATCC 19606; highest concentration 50 µM).
`CC[C@H](C)[C@H](NC(=O)CNC(=O)[C@H](CC(=O)O)NC(=O)[C@H](CCCNC(=N)N)NC(=O)[C@@H](NC(=O)[C@H](CC(N)=O)NC(=O)[C@H](CCCNC(=N)N)NC(=O)CNC(=O)[C@@H](NC(=O)[C@H](CCC(=O)O)NC(=O)[C@H](CCC(=O)O)NC(=O)[C@@H](NC(=O)[C@H](CCCCN)NC(=O)[C@H](CCCCN)NC(=O)[C@H](Cc1ccccc1)NC(=O)[C@@H](NC(=O)[C@H](CCCCN)NC(=O)[C@H](Cc1c[nH]c2ccccc12)NC(=O)[C@@H](N)CCCNC(=N)N)[C@@H](C)CC)[C@@H](C)CC)C(C)C)C(C)C)C(=O)N[C@H](C(=O)N[C@@H](CCCCN)C(=O)N[C@@H](C)C(=O)NCC(=O)N1CCC[C@H]1C(=O)N[C@@H](C)C(=O)N[C@H](C(=O)N[C@@H](C)C(=O)N[C@H](C(=O)N[C@H](C(=O)NCC(=O)N[C@@H](CCC(N)=O)C(=O)N[C@@H](C)C(=O)N[C@@H](C)C(=O)N[C@H](C(=O)N[C@H](C(=O)N[C@H](C(=O)N[C@@H](CCCCN)C(N)=O)C(C)C)C(C)C)[C@@H](C)O)C(C)C)C(C)C)C(C)C)[C@@H](C)CC` has an MIC of 4 µM (KCCM 40203, Mueller-Hinton broth; 16 h, 37 °C; growth inhibition over 99%).
With `CC[C@H](C)[C@H](N)C(=O)N[C@@H](CCCNC(=N)N)C(=O)N[C@H](C(=O)N[C@@H](Cc1c[nH]c2ccccc12)C(=O)N[C@@H](Cc1ccccc1)C(=O)N[C@H](C(=O)N[C@@H](CCCCN)C(=O)N[C@H](C(=O)N[C@@H](CCCNC(=N)N)C(=O)N[C@@H](CCCCN)C(=O)N[C@@H](Cc1c[nH]c2ccccc12)C(=O)N[C@@H](CCCCN)C(=O)N[C@@H](C)C(=O)N[C@H](C(=O)N[C@@H](Cc1ccc(O)cc1)C(=O)N[C@@H](Cc1c[nH]cn1)C(=O)N[C@H](C(N)=O)[C@@H](C)O)[C@@H](C)CC)C(C)C)[C@@H](C)CC)C(C)C` the MIC was 12.5 µM (broth dilution; ATCC 19606).
`CC[C@H](C)CCCCC(=O)N[C@@H](CCN)C(=O)N[C@H](C(=O)N[C@@H](CCN)C(=O)N[C@H]1CCNC(=O)[C@H]([C@@H](C)O)NC(=O)[C@H](CCN)NC(=O)[C@H](CCN)NC(=O)[C@H](CC(C)C)NC(=O)[C@@H](CC(C)C)NC(=O)[C@H](CCN)NC1=O)[C@@H](C)O` gave an MIC of 0.25 µg/mL (broth microdilution; ATCC BAA-1605).
For `CC[C@H](C)[C@H](NC(=O)CNC(=O)[C@H](CC(=O)O)NC(=O)[C@H](CCCNC(=N)N)NC(=O)[C@@H](NC(=O)[C@H](CC(N)=O)NC(=O)[C@H](CCCNC(=N)N)NC(=O)CNC(=O)[C@@H](NC(=O)[C@H](CCCCN)NC(=O)[C@H](CCC(=O)O)NC(=O)[C@@H](NC(=O)[C@H](CCCCN)NC(=O)[C@H](CCCCN)NC(=O)[C@H](Cc1ccccc1)NC(=O)[C@@H](NC(=O)[C@H](CCCCN)NC(=O)[C@H](Cc1c[nH]c2ccccc12)NC(=O)[C@@H](N)CCCNC(=N)N)[C@@H](C)CC)[C@@H](C)CC)C(C)C)C(C)C)C(=O)N[C@H](C(=O)N[C@@H](CCCCN)C(=O)N[C@@H](C)C(=O)NCC(=O)N1CCC[C@H]1C(=O)N[C@@H](C)C(=O)N[C@H](C(=O)N[C@@H](C)C(=O)N[C@H](C(=O)N[C@H](C(=O)NCC(=O)N[C@@H](CCC(N)=O)C(=O)N[C@@H](C)C(=O)N[C@@H](C)C(=O)N[C@H](C(=O)N[C@H](C(=O)N[C@H](C(=O)N[C@@H](CCCCN)C(N)=O)C(C)C)C(C)C)[C@@H](C)O)C(C)C)C(C)C)C(C)C)[C@@H](C)CC`, the MIC was 1 µM (CCARM 12006 carbapenem-resistant).
`CC[C@H](C)[C@H](NC(=O)[C@H](CCCCN)NC(=O)[C@H](CCCCN)NC(=O)CNC(=O)[C@H](CCCCN)NC(=O)[C@H](CC(C)C)NC(=O)[C@H](CCCCN)NC(=O)[C@H](CCCNC(=N)N)NC(=O)[C@@H](NC(=O)[C@H](CC(C)C)NC(=O)[C@H](CCCNC(=N)N)NC(=O)[C@@H](N)CCCNC(=N)N)[C@@H](C)CC)C(=O)N[C@@H](Cc1ccc(O)cc1)C(=O)N[C@@H](CC(C)C)C(=O)N[C@@H](Cc1ccc(O)cc1)C(=O)N[C@@H](Cc1ccccc1)C(=O)N[C@@H](CCCCN)C(=O)N[C@@H](CC(C)C)C(=O)N[C@@H](CCC(N)=O)C(=O)N[C@@H](CC(C)C)C(=O)N[C@@H](CC(C)C)C(=O)N[C@@H](CCCCN)C(=O)N[C@@H](CCCCN)C(N)=O` gave an MIC of 4 µM (KCCM 40203, Mueller-Hinton broth; 24 h).
For `CCN1CCN(C(=O)N[C@@H](C(=O)N[C@@H]2C(=O)N3[C@@H]2SC(C)(C)[C@@H]3C(=O)O)c2ccccc2)C(=O)C1=O`, the MIC was greater than 64 µg/mL (carbapenem-resistant clinical isolate).
The MIC of `CC(=O)N[C@@H](CC(C)C)C(=O)N[C@@H](CCCCN)C(=O)N[C@@H](CC(C)C)C(=O)N[C@@H](CC(C)C)C(=O)N[C@@H](CCCCN)C(=O)N[C@@H](CCCCN)C(=O)N1CCC[C@H]1C(=O)N[C@@H](CC(C)C)C(=O)N[C@@H](CCCCN)C(=O)N[C@@H](CC(C)C)C(=O)N[C@@H](CC(C)C)C(=O)N[C@@H](CCCCN)C(N)=O` is reported as greater than 80 µM (broth microdilution; ATCC 17978; 18 h, 37 °C, compound alone).
`C[C@@H](O)[C@H]1C(=O)N2C(C(=O)O)=C(S[C@@H]3CN[C@H](C(=O)N(C)C)C3)[C@H](C)[C@H]12` gave an MIC of greater than 8 µg/mL (1188767, multidrug-resistant).
For `CC[C@H](C)[C@H](NC(=O)CNC(=O)[C@H](CC(=O)O)NC(=O)[C@H](CCCNC(=N)N)NC(=O)[C@@H](NC(=O)[C@H](CC(N)=O)NC(=O)[C@H](CCCNC(=N)N)NC(=O)CNC(=O)[C@@H](NC(=O)[C@H](CCCCN)NC(=O)[C@H](CCC(=O)O)NC(=O)[C@@H](NC(=O)[C@H](CCCCN)NC(=O)[C@H](CCCCN)NC(=O)[C@H](Cc1ccccc1)NC(=O)[C@@H](NC(=O)[C@H](CCCCN)NC(=O)[C@H](Cc1c[nH]c2ccccc12)NC(=O)[C@@H](N)CCCNC(=N)N)[C@@H](C)CC)[C@@H](C)CC)C(C)C)C(C)C)C(=O)N[C@H](C(=O)N[C@@H](CCCCN)C(=O)N[C@@H](C)C(=O)NCC(=O)N1CCC[C@H]1C(=O)N[C@@H](C)C(=O)N[C@H](C(=O)N[C@@H](C)C(=O)N[C@H](C(=O)N[C@H](C(=O)NCC(=O)N[C@@H](CCC(N)=O)C(=O)N[C@@H](C)C(=O)N[C@@H](C)C(=O)N[C@H](C(=O)N[C@H](C(=O)N[C@H](C(=O)N[C@@H](CCC(=O)O)C(N)=O)C(C)C)C(C)C)[C@@H](C)O)C(C)C)C(C)C)C(C)C)[C@@H](C)CC`, the MIC was 2 µM (KCCM 40203, Mueller-Hinton broth; 16 h, 37 °C; growth inhibition over 99%).
The MIC of `CC[C@H](C)[C@H](NC(=O)[C@H](CC(C)C)NC(=O)[C@H](CCCNC(=N)N)NC(=O)[C@@H](N)CCCNC(=N)N)C(=O)N[C@@H](CCCNC(=N)N)C(=O)N[C@H](C(=O)N[C@@H](CCCCN)C(=O)N[C@H](C(=O)NCC(=O)N1CCC[C@H]1C(=O)N[C@H](C(=O)N[C@H](C(=O)N[C@@H](Cc1ccc(O)cc1)C(=O)N[C@@H](CCCCN)C(=O)N[C@@H](Cc1ccc(O)cc1)C(=O)N[C@@H](Cc1ccccc1)C(=O)N[C@@H](CCCCN)C(=O)N[C@@H](CCCCN)C(=O)N[C@@H](CCC(N)=O)C(=O)N[C@@H](CC(C)C)C(=O)N[C@@H](CC(C)C)C(=O)N[C@@H](CCCCN)C(=O)N[C@@H](CCCCN)C(N)=O)[C@@H](C)CC)[C@@H](C)CC)[C@@H](C)O)[C@@H](C)O` is reported as 2 µM (ATCC BAA1605, Mueller-Hinton broth; 24 h).
The MIC of `O=[N+]([O-])c1ccc(O)c2ncccc12` is reported as 8 µg/mL (broth microdilution; carbapenem-resistant clinical isolate).
The MIC of `N=C(N)NCCC[C@H](NC(=O)[C@H](Cc1c[nH]c2ccccc12)NC(=O)[C@H](CCCNC(=N)N)NC(=O)[C@@H](N)Cc1c[nH]c2ccccc12)C(=O)N[C@@H](Cc1ccccc1)C(=O)N[C@@H](CCC(N)=O)C(=O)N[C@@H](Cc1ccccc1)C(=O)N[C@@H](CCC(N)=O)C(=O)N[C@@H](Cc1ccccc1)C(=O)N[C@@H](CCCCN)C(N)=O` is reported as 140 µM (broth microdilution, optical density).
The MIC of `CC[C@H](C)[C@H](NC(=O)[C@H](CC(C)C)NC(=O)[C@H](CCCNC(=N)N)NC(=O)[C@H](CC(C)C)NC(=O)[C@@H](NC(=O)[C@@H](NC(=O)[C@H](CCCNC(=N)N)NC(=O)[C@@H](NC(=O)[C@@H](NC(=O)[C@H](CCCNC(=N)N)NC(=O)[C@H](CCCNC(=N)N)NC(=O)[C@H](CCCNC(=N)N)NC(=O)[C@H](CO)NC(=O)[C@@H](N)CCCNC(=N)N)[C@@H](C)CC)[C@@H](C)CC)[C@@H](C)CC)C(C)C)C(=O)N[C@@H](CCCNC(=N)N)C(=O)N[C@@H](CCCNC(=N)N)C(=O)N[C@@H](CO)C(=O)N[C@@H](C)C(=O)N[C@@H](CCCNC(=N)N)C(N)=O` is reported as 2 µM (broth microdilution; ATCC 17978; highest value reported).
With `C[C@@H](O)[C@H]1C(=O)N2C(C(=O)O)=C(SCCN=CN)C[C@H]12` the MIC was 128 µM (CCARM 12004 carbapenem-resistant, Mueller-Hinton broth; 16 h, 37 °C).

Some of these lines once more:
For `CC[C@H](C)[C@H](NC(=O)CNC(=O)[C@H](CC(=O)O)NC(=O)[C@H](CCCNC(=N)N)NC(=O)[C@@H](NC(=O)[C@H](CC(N)=O)NC(=O)[C@H](CCCNC(=N)N)NC(=O)CNC(=O)[C@@H](NC(=O)[C@H](CCCCN)NC(=O)[C@H](CCC(=O)O)NC(=O)[C@@H](NC(=O)[C@H](CCCCN)NC(=O)[C@H](CCCCN)NC(=O)[C@H](Cc1ccccc1)NC(=O)[C@@H](NC(=O)[C@H](CCCCN)NC(=O)[C@H](Cc1c[nH]c2ccccc12)NC(=O)[C@@H](N)CCCNC(=N)N)[C@@H](C)CC)[C@@H](C)CC)C(C)C)C(C)C)C(=O)N[C@H](C(=O)N[C@@H](CCCCN)C(=O)N[C@@H](C)C(=O)NCC(=O)N1CCC[C@H]1C(=O)N[C@@H](C)C(=O)N[C@H](C(=O)N[C@@H](C)C(=O)N[C@H](C(=O)N[C@H](C(=O)NCC(=O)N[C@@H](CCC(N)=O)C(=O)N[C@@H](C)C(=O)N[C@@H](C)C(=O)N[C@H](C(=O)N[C@H](C(=O)N[C@H](C(=O)N[C@@H](CCCCN)C(N)=O)C(C)C)C(C)C)[C@@H](C)O)C(C)C)C(C)C)C(C)C)[C@@H](C)CC`, the MIC was 1 µM (CCARM 12006 carbapenem-resistant).
For `CC[C@H](C)[C@H](NC(=O)CNC(=O)[C@H](CC(=O)O)NC(=O)[C@H](CCCNC(=N)N)NC(=O)[C@@H](NC(=O)[C@H](CC(N)=O)NC(=O)[C@H](CCCNC(=N)N)NC(=O)CNC(=O)[C@@H](NC(=O)[C@H](CCCCN)NC(=O)[C@H](CCC(=O)O)NC(=O)[C@@H](NC(=O)[C@H](CCCCN)NC(=O)[C@H](CCCCN)NC(=O)[C@H](Cc1ccccc1)NC(=O)[C@@H](NC(=O)[C@H](CCCCN)NC(=O)[C@H](Cc1c[nH]c2ccccc12)NC(=O)[C@@H](N)CCCNC(=N)N)[C@@H](C)CC)[C@@H](C)CC)C(C)C)C(C)C)C(=O)N[C@H](C(=O)N[C@@H](CCCCN)C(=O)N[C@@H](C)C(=O)NCC(=O)N1CCC[C@H]1C(=O)N[C@@H](C)C(=O)N[C@H](C(=O)N[C@@H](C)C(=O)N[C@H](C(=O)N[C@H](C(=O)NCC(=O)N[C@@H](CCC(N)=O)C(=O)N[C@@H](C)C(=O)N[C@@H](C)C(=O)N[C@H](C(=O)N[C@H](C(=O)N[C@H](C(=O)N[C@@H](CCC(=O)O)C(N)=O)C(C)C)C(C)C)[C@@H](C)O)C(C)C)C(C)C)C(C)C)[C@@H](C)CC`, the MIC was 2 µM (KCCM 40203, Mueller-Hinton broth; 16 h, 37 °C; growth inhibition over 99%).
